Experimental data gathered from unrelated publications.
Compare with care: the assays were run in different laboratories. Values joined by “and” are separate records of one study, mostly repeats; a detail may differ. Numbers after ± are the reported error. ≈ marks a conversion by molar mass, not a printed value.

The chains behind the UniProt entries cited, without tags or fusion partners. Residues count along the entry.
UniProt P35367, whole entry: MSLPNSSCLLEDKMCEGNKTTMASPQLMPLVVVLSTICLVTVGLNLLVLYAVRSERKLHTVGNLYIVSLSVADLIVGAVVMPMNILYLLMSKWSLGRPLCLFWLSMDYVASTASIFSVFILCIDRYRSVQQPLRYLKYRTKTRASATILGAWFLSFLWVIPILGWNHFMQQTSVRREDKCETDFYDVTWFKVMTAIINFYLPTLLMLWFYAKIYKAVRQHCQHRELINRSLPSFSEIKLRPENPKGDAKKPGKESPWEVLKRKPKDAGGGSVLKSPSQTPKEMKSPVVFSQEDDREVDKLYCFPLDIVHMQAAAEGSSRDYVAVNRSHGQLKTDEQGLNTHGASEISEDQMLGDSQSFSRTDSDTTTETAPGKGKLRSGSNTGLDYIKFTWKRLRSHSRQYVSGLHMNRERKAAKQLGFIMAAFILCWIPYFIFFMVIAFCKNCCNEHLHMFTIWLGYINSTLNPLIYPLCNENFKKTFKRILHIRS
UniProt P9WPP7, whole entry: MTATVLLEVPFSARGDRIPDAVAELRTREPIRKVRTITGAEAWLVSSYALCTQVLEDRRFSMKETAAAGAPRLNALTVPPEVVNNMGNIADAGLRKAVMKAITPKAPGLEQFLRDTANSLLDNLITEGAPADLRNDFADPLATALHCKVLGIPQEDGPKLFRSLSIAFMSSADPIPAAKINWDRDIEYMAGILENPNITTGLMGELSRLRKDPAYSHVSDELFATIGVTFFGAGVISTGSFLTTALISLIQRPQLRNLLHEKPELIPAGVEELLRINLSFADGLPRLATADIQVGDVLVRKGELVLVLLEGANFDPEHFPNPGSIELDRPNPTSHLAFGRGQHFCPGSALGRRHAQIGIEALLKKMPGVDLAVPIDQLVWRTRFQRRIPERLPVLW
UniProt P35353, 24-415 limits assumed: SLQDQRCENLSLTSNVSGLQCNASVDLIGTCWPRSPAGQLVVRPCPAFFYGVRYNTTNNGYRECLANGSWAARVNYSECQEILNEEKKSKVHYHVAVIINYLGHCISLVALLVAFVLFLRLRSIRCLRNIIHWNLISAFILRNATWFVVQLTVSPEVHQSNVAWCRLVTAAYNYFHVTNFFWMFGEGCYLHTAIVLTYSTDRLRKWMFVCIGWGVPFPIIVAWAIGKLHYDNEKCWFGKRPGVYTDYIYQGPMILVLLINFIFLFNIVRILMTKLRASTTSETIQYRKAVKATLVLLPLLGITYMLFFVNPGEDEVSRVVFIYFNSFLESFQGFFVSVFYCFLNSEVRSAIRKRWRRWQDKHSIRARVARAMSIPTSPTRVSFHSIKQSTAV

SMILES	target or system	assay	system	conditions	how to read	endpoint	value
COc1ccc(CN[C@@H]2CO[C@H](C(c3ccccc3)c3ccccc3)C[C@H]2O)cc1	HRH1 (Homo sapiens, UniProt P35367)	radioligand binding	–	10 µM, together with: [3H]pyrilamine	–	inhibition	-16.9%
NC[C@@H](NC[C@@H]1CCCN1C[C@@H](CO)NC[C@@H](NCCC12CC3CC(CC(C3)C1)C2)c1ccccc1)c1ccccc1	Klebsiella pneumoniae	bacterial growth	–	24 µM, fold shift of IC50, together with: amikacin	–	potentiation of amikacin	3.2 fold
CC1(C)CC[C@]2(C(=O)O)CC[C@]3(C)C(=CC[C@@H]4[C@@]5(C)CC[C@H](OC(=O)NCc6ccccc6)C(C)(C)[C@@H]5CC[C@]43C)[C@@H]2C1	–	–	C57BL/6 mice, plasma	intraperitoneal, 85 µmol/kg	–	Tmax	1 h
O=S(=O)(O)c1ccc2cc(S(=O)(=O)O)ccc2c1	Escherichia coli	bacterial growth, broth microdilution	expressing OXA-48	32 µg/mL, together with: ampicillin	MIC of ampicillin	MIC of ampicillin	128 µg/mL
COc1ccc(S(=O)(=O)Nc2cccc(C(=O)NC3CCN(c4ncnc5[nH]cnc45)CC3)c2)cc1	HCoV-OC43	viral infection	–	concentration not given	–	inhibition	42.2%
CCC(c1ccc(-c2ccc(OC(F)(F)F)cc2)cc1)n1ccnc1 (stereo not drawn)	cyp121 (Mycobacterium tuberculosis, UniProt P9WPP7)	–	–	racemate	–	Kd	≤ 6000 nM
CN1CC[C@]23c4c5ccc(O)c4O[C@H]2c2ncc(-c4ccc(Cl)cc4)cc2C[C@@]3(OCCCc2ccccc2)[C@H]1C5	–	tolerance	CD-1 mouse, chemotherapy-induced neuropathy	sc, 3.2 mg/kg twice daily, 4 days	–	days to zero efficacy	4.3 days
CCCCCCCCCCCCNC(=O)N[C@H](C(=O)N[C@H]1/C=C/CCNC(=O)/C=C/[C@H](C)NC1=O)C(C)C	Mino	cell viability, CellTiter-Glo	–	24 h	–	EC50	64.4 ± 2.1 nM
O=C(O)c1ccc(-c2cccc(C(=O)O)c2)cc1	Escherichia coli	bacterial growth, broth microdilution	expressing OXA-48	32 µg/mL, together with: ampicillin	MIC of ampicillin	MIC of ampicillin	256 µg/mL
O=C(NC1CCN(c2ncnc3[nH]cnc23)CC1)c1cccc(NS(=O)(=O)c2ccc(F)cc2)c1	HCoV-OC43	viral infection	–	concentration not given	–	inhibition	15%
COCCN(CCOC)c1nc(C)nc2c(-c3c(OC)cc([76Br])cc3OC)c(C)nn12	Corticotropin-releasing factor receptor 1 (Rattus norvegicus, UniProt P35353)	ex vivo autoradiography	rat, awake, cerebellum	intravenous, 1 h	reference: choroid plexus	uptake ratio	176%
O=S(=O)(O)c1ccc(-c2ccc(S(=O)(=O)O)cc2)cc1	Escherichia coli	bacterial growth, broth microdilution	expressing OXA-48	16 µg/mL, together with: ampicillin	MIC of ampicillin	MIC of ampicillin	512 µg/mL
Cc1ccc(S(=O)(=O)Nc2cccc(C(=O)NC3CCN(c4ncnc5[nH]cnc45)CC3)c2)cc1Cl	HCoV-OC43	viral infection	–	concentration not given	–	inhibition	62.4%
CC(C)Oc1c(NC(=O)c2ccc(NC(=O)[C@H](CC(N)=O)NC(=O)c3cc(F)c(/N=N/c4c(Cl)cc(C#N)cc4Cl)c(F)c3)cc2)ccc(C(=O)N/N=C/c2c(F)cc(C(=O)O)cc2F)c1O	Escherichia coli	–	BW25113	after 1 h irradiation at 365 nm	–	MIC	> 6.4 µg/mL
O=c1[nH]c2sc3c(c2c(=O)n1O)CCCC3	HIV-1	viral replication, MAGI	P4/R5	–	–	EC50	21000 ± 1000 nM
NC[C@@H](NC[C@@H]1CCCN1C[C@@H](CO)NC[C@@H](NCCc1ccc(-c2ccccc2)cc1)c1ccccc1)c1ccccc1	Acinetobacter baumannii	bacterial growth	–	compound alone	–	IC50	12000 nM and 11700 nM
Nc1cc(S(=O)(=O)O)cc2cc(S(=O)(=O)O)cc(O)c12	Escherichia coli	bacterial growth, broth microdilution	expressing OXA-48	16 µg/mL, together with: ampicillin	MIC of ampicillin	MIC of ampicillin	512 µg/mL
CC(C)(C)c1ccc(C(=O)Nc2cc(Cl)c(Cl)cc2C(=O)O)cc1	Trypanosoma brucei	–	bloodstream form, 90-13	10 µM	–	growth inhibition	35 ± 11%
NCCNCCSc1ccccc1	–	spectrophotometry	–	pH 5.2	–	pKa	5.51
NC[C@@H](NC[C@@H]1CCCN1C[C@@H](CO)NC[C@@H](NCCC1CC2CCC1C2)c1ccccc1)c1ccccc1 (stereo partly drawn)	Klebsiella pneumoniae	bacterial growth	–	24 µM, fold shift of IC90, together with: amikacin	–	potentiation of amikacin	3.9 fold
CC(C)C[C@@H](NC(=O)[C@H](NC(=O)[C@H]1CCCN1)[C@H](C)O)C(=O)N[C@H](Cc1c[nH]cn1)C(=O)N[C@@H](C(=O)N[C@H](Cc1c[nH]cn1)C(=O)N[C@H](CC(N)=O)C(=O)N[C@H](CCCNC(=N)N)C(=O)N[C@H](CCCNC(=N)N)C(=O)N[C@H](CCCNC(=N)N)C(=O)N[C@H](CCCNC(=N)N)C(=O)N[C@H](CCCNC(=N)N)C(N)=O)[C@H](C)O	–	adverse events, phase I single ascending dose	healthy male subjects	12 mg, grade 1	–	incidence of abnormal EEG	16.7%
CC(CCN[C@H](CN[C@H](CO)CN1CCC[C@H]1CN[C@H](CN)c1ccccc1)c1ccccc1)c1ccccc1 (stereo partly drawn)	Klebsiella pneumoniae	bacterial growth	–	24 µM, fold shift of IC90, together with: amikacin	–	potentiation of amikacin	2.6 fold
[11CH3]Nc1ccc(C(=O)C2CCN(C3Cc4ccccc4CC3O)CC2)cc1 (single isomer, unassigned)	–	–	Sprague-Dawley rat, fat	intravenous, dose not given, 5 min	–	radioactivity uptake	0.18 %ID/g
COc1cc(-c2c(C)cccc2C)cc(C(C)C#Cc2c(C)nc(N)nc2N)c1 (racemic)	Candida glabrata	Alamar Blue	–	–	–	MIC	24 µg/mL (≈ 62.1 µM)
C[C@H](CS)C(=O)N[C@H](Cc1c[nH]c2ccccc12)C(=O)O	Enterobacter aerogenes	–	IMP-1 producing	50 µM, together with: meropenem	–	MIC of meropenem	0.5 µg/mL
O=S(=O)(O)c1ccc2c(c1)Cc1cc(S(=O)(=O)O)ccc1-2	Escherichia coli	bacterial growth, broth microdilution	expressing OXA-48	16 µg/mL, together with: ampicillin	MIC of ampicillin	MIC of ampicillin	256 µg/mL
O=C(CCN(CCC(=O)N[C@@H](Cc1c[nH]c2ccccc12)C(=O)O)C(=O)CCN(CCC(=O)N(CCC(=O)N[C@@H](Cc1c[nH]c2ccccc12)C(=O)O)CCC(=O)N[C@@H](Cc1c[nH]c2ccccc12)C(=O)O)C(=O)CCOCC(COCCC(=O)N(CCC(=O)N(CCC(=O)N[C@@H](Cc1c[nH]c2ccccc12)C(=O)O)CCC(=O)N[C@@H](Cc1c[nH]c2ccccc12)C(=O)O)CCC(=O)N(CCC(=O)N[C@@H](Cc1c[nH]c2ccccc12)C(=O)O)CCC(=O)N[C@@H](Cc1c[nH]c2ccccc12)C(=O)O)(COCCC(=O)N(CCC(=O)N(CCC(=O)N[C@@H](Cc1c[nH]c2ccccc12)C(=O)O)CCC(=O)N[C@@H](Cc1c[nH]c2ccccc12)C(=O)O)CCC(=O)N(CCC(=O)N[C@@H](Cc1c[nH]c2ccccc12)C(=O)O)CCC(=O)N[C@@H](Cc1c[nH]c2ccccc12)C(=O)O)COCCC(=O)N(CCC(=O)N(CCC(=O)N[C@@H](Cc1c[nH]c2ccccc12)C(=O)O)CCC(=O)N[C@@H](Cc1c[nH]c2ccccc12)C(=O)O)CCC(=O)N(CCC(=O)N[C@@H](Cc1c[nH]c2ccccc12)C(=O)O)CCC(=O)N[C@@H](Cc1c[nH]c2ccccc12)C(=O)O)N[C@@H](Cc1c[nH]c2ccccc12)C(=O)O	Enterovirus A71	viral replication	VP1 S184T P246S resistant	–	–	EC50	2400 ± 600 nM
O=c1c2ccc(Oc3ccc(OC(F)(F)F)cc3)cc2[nH]c2cc(Cl)cc(F)c12	Toxoplasma gondii	parasite growth, beta-galactosidase reporter	HFF, RH	–	–	EC50	0.03 nM
NC[C@@H](NC[C@@H]1CCCN1C[C@@H](CO)NC[C@@H](NCCc1ccc(Cl)c(Cl)c1)c1ccccc1)c1ccccc1	Klebsiella pneumoniae	bacterial growth	–	16 µM, fold shift of IC90, together with: amikacin	–	potentiation of amikacin	1.1 fold
C=CC(=O)Nc1cc(-n2c(=O)ccc3cnc4ccc(-c5cn[nH]c5)cc4c32)ccc1C	OCI-AML-3	cell growth	–	72 h	–	GI50	1400 nM

Excerpt of the above:
SMILES	target or system	assay	system	conditions	how to read	endpoint	value
NC[C@@H](NC[C@@H]1CCCN1C[C@@H](CO)NC[C@@H](NCCC1CC2CCC1C2)c1ccccc1)c1ccccc1 (stereo partly drawn)	Klebsiella pneumoniae	bacterial growth	–	24 µM, fold shift of IC90, together with: amikacin	–	potentiation of amikacin	3.9 fold
CC(C)Oc1c(NC(=O)c2ccc(NC(=O)[C@H](CC(N)=O)NC(=O)c3cc(F)c(/N=N/c4c(Cl)cc(C#N)cc4Cl)c(F)c3)cc2)ccc(C(=O)N/N=C/c2c(F)cc(C(=O)O)cc2F)c1O	Escherichia coli	–	BW25113	after 1 h irradiation at 365 nm	–	MIC	> 6.4 µg/mL
